# Experimental data from different studies.
# Every numbered part comes from another study and shows a few of its results, in no order.

# Sample 1 — method: RNA Bind-n-Seq; form: RNA; medium: in vitro; concentration: 365 nM; relative to: no-protein control; reading: higher = stronger binding
# Target: RNA binding protein fox-1 homolog 2, RRM domain, GST-SBP tag (RBFOX2, Homo sapiens, UniProt O43251-10, residues 100-194)
# Notes: natural RNA segment, single round, ends assumed
# Target sequence (chain): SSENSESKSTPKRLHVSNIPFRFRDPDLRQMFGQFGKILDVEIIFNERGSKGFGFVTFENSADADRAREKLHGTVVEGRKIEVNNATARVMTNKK
Sequence,RBNS enrichment (R)
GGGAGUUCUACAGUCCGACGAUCGACCAUAAAGCAGACUUUAGUAACUUUCUAUUUCUGUAAGUACUAAAUGUCUGGCAUUUUAAACUUUUGUAGAAUACAUUAUGUUGGACACUGGAAUAAUACUAUUUAUUUGGAAUUCUCGGGUGCCAA,0.685
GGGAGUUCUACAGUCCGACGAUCCCAACCCCAACAGACCCGUAGGGGGAGAAAAGGGAGGAAAAAAGUAAUUUUAAGGGGCCAAAGCUUUCCCUGAAGCAACCAAAGAUAUAUCCAAGUGCUUCCUCCAAGUCUGGAAUUCUCGGGUGCCAA,0.249
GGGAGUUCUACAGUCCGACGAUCGCCACUAGAUGACAAGAUGUUAUAACUAAGUUAAACCACAUCUGUGUAUCUCAAGGGACUUAAUUCAGCUGUCUGUAGUGAAUAAAAGUGGGAAAUUUUCAAAAGUUUCUUGGAAUUCUCGGGUGCCAA,0.501
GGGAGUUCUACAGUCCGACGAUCUGCAGGAGGUAGCAUCACCUCUUGGCAUUUUGUACAUGCUUUUAAACAAUUGGAGGAGCUGCCCAGGCAGUUUUAUGGCCUCCUGGUUGUGUGCCUUCACACCCGCCUACUGGAAUUCUCGGGUGCCAA,0.445
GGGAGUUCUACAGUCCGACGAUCCACAUUUGAACUCUUGACACUUCCAGCUCCCUCAGCUCCUGGCUAGAAGGCUGGAGAUCAGUUGGAUAUCCUCUCUCCUUUUUGAAAACGCCCCUAAGUAGUUUAUCCAAUGGAAUUCUCGGGUGCCAA,0.727
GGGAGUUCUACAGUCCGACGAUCUUUGUACUUGCCAUAGAUGUAACCUAAAAAGUUUUGGCAUAUUUAGGUCAGCCUAGCGGAACUUUUUUUUUCAUUUAAAUGGAGCUGAAUAAUGGAGAUUUUGUGUCUGCUGGAAUUCUCGGGUGCCAA,0.377
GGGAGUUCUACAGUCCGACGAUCUUAUCCCUCCUGGGUCAUGGGAAAAGUCAGUCUCCACAUUACAGAUCACUUCCAGAGGGAGGCUGGAGGGAUGGUCAUACAGCGGGGCCAAGGUAGGGGUGGUCUCAGACUGGAAUUCUCGGGUGCCAA,0.97
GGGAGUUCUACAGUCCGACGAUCCAGUACUACAAAAUAAAGGGGAAAGAAUUCUUGUAGAUAGAAUCCCAAGAGAGCUCAUUUAAUUGUGCUGUGACAAUGAAGAUUACUGGAAUGAAUUUUUGUCUUUUGUAUGGAAUUCUCGGGUGCCAA,1.09
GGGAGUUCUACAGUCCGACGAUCUAGGUAGAAAAACAUAUUCUUGUGCUUUUCCUGAUAAAGCACAGCUGUAGUGGGGUUCUAGGCAUCUCUGUACUUUGCUUGCUCAUAUGCAUGUAGUCACUUUAUAAGUCUGGAAUUCUCGGGUGCCAA,5.8
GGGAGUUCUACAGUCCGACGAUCCGACAUUUAAUGUUGGCAGUGUCAGGCCUCUGACUUGAGACUACUGCUGUCGCAGAUCCUCUCUCUGGCCCUGUUUUGGGGAGGGCCAUUCUUGGUCCUAAGGUUCAUAGUGGAAUUCUCGGGUGCCAA,0.252
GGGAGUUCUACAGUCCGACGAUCUGCUGUGAUACUUCAUUUUUAAAUUGUGAACUUUGUACAAACUUUGUCAUGCUGAUGUGAACACAUCUUACUCUGAAUAAAAAGGUGUUGCCACGUUUGUAGCACGAAGGUGGAAUUCUCGGGUGCCAA,0.493
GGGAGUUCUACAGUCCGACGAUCUGCCUCAAAUUUGUAUAAGUGAUUGGCUAGUGAUUCUUGUUUUCAGAAGGGAGAGUGGUAUAGAUAGAAAAUGACAAAGAUGGCAAUAUACACUUAAUGUUGUUAUUGUAUGGAAUUCUCGGGUGCCAA,1.03

# Sample 2 — method: aptamer microarray, sandwich; form: DNA with 2'F-ANA; medium: in vitro; concentration: 200 nM; added: Cy3 exosite-II aptamer, 400 nM; reading: higher = stronger binding; sequence: GGTTGGTGTGGTTGG
# Target: Prothrombin, mature alpha-thrombin (F2, Homo sapiens, UniProt P00734)
# Notes: whole 15-mer aptamer, many near background
Modification,mean fluorescence intensity [a.u.]
2'F-ANA at 1 4 5 6 7 9 10 11 13,47.4
2'F-ANA at 3 4 5 7 8 10 14,51.4
2'F-ANA at 3 5 8 9 10 11 12 14,55.5
2'F-ANA at 5 7 10 11 13 14 15,47.8
2'F-ANA at 1 3 4 7 9 13 14,59.9
2'F-ANA at 2 3 4 5 7 8 11 13 15,65.6
2'F-ANA at 1 4 5 8 9 10 11 14 15,56.5
2'F-ANA at 1 5 7 8 9 10 13,47.3
2'F-ANA at 3 4 5 6 7 9,98.3
2'F-ANA at 4 7 8 15,422
2'F-ANA at 2 4 5 7 8 10 15,46.2
2'F-ANA at 1 3 4 6 7 8 11 13,157
2'F-ANA at 1 3 5 7 9 10 11 13 14 15,45.5
2'F-ANA at 1 4 7 8 10 11 12 13 14 15,86
2'F-ANA at 3 4 6 11 14 15,258
2'F-ANA at 1 4 6 7 9 10 11 12 13 14 15,93.3
2'F-ANA at 3 11 15,1000
2'F-ANA at 1 2 3 4 8 9 10 11 13 14 15,144

# Sample 3 — method: RNA Bind-n-Seq; form: RNA; medium: in vitro; concentration: not given; notes: RNA with constant flanks, ends assumed; relative to: input RNA pool; reading: higher = stronger binding
# Target: RING finger protein unkempt homolog, zinc fingers 1-6, GST-SBP tag (UNK, Homo sapiens, UniProt Q9C0B0, residues 30-357)
# Construct (chain): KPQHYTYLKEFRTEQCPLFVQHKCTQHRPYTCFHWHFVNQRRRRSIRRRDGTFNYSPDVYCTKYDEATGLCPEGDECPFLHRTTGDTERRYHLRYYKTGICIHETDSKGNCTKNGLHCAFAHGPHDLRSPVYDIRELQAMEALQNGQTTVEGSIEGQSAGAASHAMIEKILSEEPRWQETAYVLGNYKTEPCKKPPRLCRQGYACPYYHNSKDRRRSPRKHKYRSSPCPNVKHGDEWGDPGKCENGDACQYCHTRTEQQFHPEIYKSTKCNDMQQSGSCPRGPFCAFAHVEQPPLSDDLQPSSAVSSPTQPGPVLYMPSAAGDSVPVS
Sequence,bound/input enrichment
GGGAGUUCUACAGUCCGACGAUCUGUGUAUAGGGGGAAGGGGUUCUUUACAUUUUCUGUGGUUUGUGCUUUUUUCUUCAGUAAAUCCGUUCCCACCAUCGCAUGCCCAGGGGCCACUACCUGGCAUUAUCGCAUGCUGGGAUCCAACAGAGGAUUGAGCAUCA,0.491 ratio
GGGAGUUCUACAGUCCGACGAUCUUUAAAACAGGUCUAAAGGCUUUGAUGACAGUAGGGAAAGAACCAUUUCCUACCAUUUACGCCGAUUCACAAAAAGAAAAUGAGAGGUGGAAUGUUAUUUCUAAAUCACAGUUGAAGAACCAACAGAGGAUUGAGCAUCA,0.188 ratio
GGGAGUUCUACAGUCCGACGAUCAAAACCUGGUAUGGAGUCCCAGGGUAUGCUGCUGAGCAGCUAGAAAAUGUAAUGAAGAAACCCGCUCCAGAACUCUUUGUGUCCCAGCCGGAUCUCCUCCAUCAGCUUGUGACCAUCAUGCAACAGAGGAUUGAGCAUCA,0.508 ratio
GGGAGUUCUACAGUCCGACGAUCUUUUGCAUUGUUGGUGUUGACUGUUGACUCUGUAGUGUAGGAGCAAUGAGCAUGUAAUUGCCGCACAAGUAGAGCGGAGGAUAGAGCAAAUUAUGGCUGAUGGAAAAGAUUUAAAUAGUCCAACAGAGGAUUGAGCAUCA,66.3 ratio
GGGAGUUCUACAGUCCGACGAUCAUGCAGUAUGAGACCAACAGCUUGGACUUCAAAGUCGGGGCGGAUGGGACAGUCUUCGCCACCCGGGAGUUGAAGAUCCCCUCAGAGCAGGUGGCCUUUACCGUCACUGCGCGGGAACGCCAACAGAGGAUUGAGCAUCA,0.0871 ratio
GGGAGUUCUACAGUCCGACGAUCAUUUUCUUACUGGCUAGAGUUCUUGGUGGAGAAGUUGCAUAUGGCCAAGUUCUUGGAGUUACCGGAUAUUCAUUACUUCCUCUCAUUGUAAUAGCCCCUAUACUUUUGGUGGUUGGAUCUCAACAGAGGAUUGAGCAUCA,0.285 ratio

# Sample 4 — method: universal PBM; form: double-stranded DNA, one strand shown; medium: in vitro; concentration: 600 nM; reading: higher = stronger binding
# Target: Sal-like protein 4, full length isoform A (SALL4, Homo sapiens, UniProt Q9UJQ4, residues 1-1053)
# UniProt Q9UJQ4, sequence (whole entry, looked up): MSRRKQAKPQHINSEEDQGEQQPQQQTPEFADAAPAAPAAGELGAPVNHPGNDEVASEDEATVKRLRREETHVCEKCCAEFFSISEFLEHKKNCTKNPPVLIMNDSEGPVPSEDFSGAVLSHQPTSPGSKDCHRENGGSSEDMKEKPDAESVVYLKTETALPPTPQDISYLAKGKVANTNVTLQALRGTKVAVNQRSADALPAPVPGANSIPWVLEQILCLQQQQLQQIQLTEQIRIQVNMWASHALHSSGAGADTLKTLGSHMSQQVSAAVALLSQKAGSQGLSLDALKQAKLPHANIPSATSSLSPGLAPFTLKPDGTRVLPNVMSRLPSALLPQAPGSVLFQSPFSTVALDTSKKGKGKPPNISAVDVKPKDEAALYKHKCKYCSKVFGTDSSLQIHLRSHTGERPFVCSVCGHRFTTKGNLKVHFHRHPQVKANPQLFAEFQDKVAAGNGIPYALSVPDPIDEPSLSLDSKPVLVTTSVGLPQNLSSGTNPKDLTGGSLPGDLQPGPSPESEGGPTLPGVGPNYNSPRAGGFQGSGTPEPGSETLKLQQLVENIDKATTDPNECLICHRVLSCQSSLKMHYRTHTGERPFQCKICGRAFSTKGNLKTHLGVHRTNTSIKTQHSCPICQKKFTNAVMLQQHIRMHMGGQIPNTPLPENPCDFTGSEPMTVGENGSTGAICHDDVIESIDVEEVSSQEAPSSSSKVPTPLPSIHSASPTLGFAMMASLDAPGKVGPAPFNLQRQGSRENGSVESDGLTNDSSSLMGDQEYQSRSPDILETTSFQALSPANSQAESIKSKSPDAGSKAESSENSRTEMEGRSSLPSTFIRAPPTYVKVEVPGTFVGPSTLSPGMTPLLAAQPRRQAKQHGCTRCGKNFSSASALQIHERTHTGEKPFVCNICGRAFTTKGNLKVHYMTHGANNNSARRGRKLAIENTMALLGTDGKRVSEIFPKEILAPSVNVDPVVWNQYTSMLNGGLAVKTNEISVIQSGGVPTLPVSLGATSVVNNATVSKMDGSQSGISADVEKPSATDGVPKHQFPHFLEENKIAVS
# Notes: 8-mer, flanks averaged, mean of replicates
Sequence,E-score
CACCAATG,-0.0338
CCATGTTC,-0.0827
AGTCGGAC,-0.167
ACGACGGC,-0.293
CGACCGCA,-0.0878
GACGTGCA,0.0724
CCCGATCA,-0.239
CAGCTTAC,0.0659
GCACTCCA,-0.145
GTTTAGTA,0.253
CTGCTCTC,-0.0629
AGTAATAC,0.21
CCTTGCCG,-0.281
CCAAGGCC,-0.232
CTCCACGC,-0.13
ATAGGAAG,0.148
TTATAGAA,0.334
AGAATCCA,-0.0878

# Sample 5 — method: protein-binding microarray; form: hairpin DNA; medium: in vitro; concentration: not given; relative to: not given; reading: higher = stronger binding; shared flanks, not repeated: GAGGCC … GGCCTCACACTCTTTCCCTACACG
# Target: Signal transducer and activator of transcription 1-alpha/beta, full length (STAT1, Homo sapiens, UniProt P42224, residues 1-750)
# UniProt P42224, sequence (whole entry, looked up): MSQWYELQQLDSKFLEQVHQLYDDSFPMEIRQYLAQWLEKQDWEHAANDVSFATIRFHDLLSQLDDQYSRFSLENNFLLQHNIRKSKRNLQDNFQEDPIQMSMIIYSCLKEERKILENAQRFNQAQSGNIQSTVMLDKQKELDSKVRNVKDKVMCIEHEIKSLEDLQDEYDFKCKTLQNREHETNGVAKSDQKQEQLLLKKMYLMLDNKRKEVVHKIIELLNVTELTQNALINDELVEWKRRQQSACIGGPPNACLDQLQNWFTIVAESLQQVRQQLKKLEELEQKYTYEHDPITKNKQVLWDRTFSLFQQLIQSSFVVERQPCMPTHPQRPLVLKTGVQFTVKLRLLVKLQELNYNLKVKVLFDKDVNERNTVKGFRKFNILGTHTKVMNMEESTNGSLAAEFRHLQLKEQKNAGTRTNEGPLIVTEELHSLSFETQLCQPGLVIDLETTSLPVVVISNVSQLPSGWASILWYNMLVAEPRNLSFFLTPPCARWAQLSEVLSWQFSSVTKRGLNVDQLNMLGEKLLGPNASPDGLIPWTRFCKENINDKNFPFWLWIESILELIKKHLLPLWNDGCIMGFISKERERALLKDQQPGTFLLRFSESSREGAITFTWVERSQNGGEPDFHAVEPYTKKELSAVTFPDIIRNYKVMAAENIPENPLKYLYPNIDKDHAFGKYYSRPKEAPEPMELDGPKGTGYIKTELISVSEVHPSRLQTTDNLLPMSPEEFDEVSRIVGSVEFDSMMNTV
# Notes: whole hairpin DNA, median over replicate spots
Sequence,median fluorescence
CTTCCCGGAAGCCTCCTGGCTTCCGGGAAG,10300 a.u.
TTTCCCGGTAGCCTCCTGGCTACCGGGAAA,2620 a.u.
TTCACCGGAAGCCTCCTGGCTTCCGGTGAA,1210 a.u.
TTTCCCGGACGCCTCCTGGCGTCCGGGAAA,1330 a.u.
TTTCCCGGCGGCCTCCTGGCCGCCGGGAAA (5mC at 15 27),1610 a.u.
TTCGCCGGAAGCCTCCTGGCTTCCGGCGAA (5mC at 9),1320 a.u.
TTTCCCTGAAGCCTCCTGGCTTCAGGGAAA (5mC at 12),1060 a.u.
TTTCCCAGAAGCCTCCTGGCTTCTGGGAAA (5mC at 12),1500 a.u.
TTTCGCGGAAGCCTCCTGGCTTCCGCGAAA,3360 a.u.
TTTCCCGGAAGCCTCCTGGCTTCCGGGAAA (5mC at 12),3960 a.u.
TTTCCCGCAAGCCTCCTGGCTTGCGGGAAA (5mC at 14),1290 a.u.
TTGCCCGGAAGCCTCCTGGCTTCCGGGCAA,2960 a.u.
TTTCCCGGGAGCCTCCTGGCTCCCGGGAAA (5mC at 28),1040 a.u.
TTTCCCGCCAGCCTCCTGGCTGGCGGGAAA (5mC at 14),1000 a.u.

# Sample 6 — method: protein binding microarray; form: double-stranded DNA, one strand shown; medium: in vitro; concentration: not given; relative to: not given; reading: higher = stronger binding
# Target: Histone acetyltransferase KAT6A, both winged helices, GST fusion (KAT6A, Homo sapiens, UniProt Q92794, residues 1-181)
# Notes: 8-mer, flanks averaged, mean of 2 arrays, mostly near background
# Construct (chain): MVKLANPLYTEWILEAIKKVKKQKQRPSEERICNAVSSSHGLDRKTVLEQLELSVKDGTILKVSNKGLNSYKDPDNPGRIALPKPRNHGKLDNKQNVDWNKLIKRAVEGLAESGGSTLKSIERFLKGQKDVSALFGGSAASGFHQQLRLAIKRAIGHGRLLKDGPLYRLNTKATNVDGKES
Sequence,E-score
AGGTTTCG,0.0512
GCGCTCCC,0.203
CGTTCGAA,0.001
CTCGCGTC,0.18
AATACTGT,-0.123
ATGCACCC,0.0625
GTGGGTAA,-0.0519
ATGAATGA,-0.0746
ACGAAGTA,-0.178
TGCTGACA,-0.165
CCATGATC,-0.128
GCCAGCTA,-0.137
GGTGCCAC,-0.0288
AATTAGGT,-0.0704
GTGTCAGA,-0.093
AGACCCGA,0.0469
AACGGAAT,0.25
AAACGCAC,0.0471
ACTCAAGG,-0.159
GCATAGCC,-0.0186
AATCATCA,-0.0796
CCGCCAAC,0.149
ACAGGAGG,-0.204
AGGCAGAC,-0.19
TCGAGCGA,0.00415

# Repeated from above (sample 4):
Sequence,E-score
AGTCGGAC,-0.167
CCATGTTC,-0.0827
CTGCTCTC,-0.0629
CGACCGCA,-0.0878
GTTTAGTA,0.253
AGAATCCA,-0.0878
CTCCACGC,-0.13
CACCAATG,-0.0338
ACGACGGC,-0.293
CCAAGGCC,-0.232
TTATAGAA,0.334
AGTAATAC,0.21
CCCGATCA,-0.239
GCACTCCA,-0.145
CAGCTTAC,0.0659
